Results gathered from unrelated publications.
Protocols differ between the studies behind these lines. Several values in a cell are separate wells, animals, samples, runs or records. ± marks the error that the study gave.

Structure (SMILES) | cell line | assay | system | setting | IC50
CCCCn1cc(C(=O)O)c(=O)c2cc(F)c(Nc3cccc(Cl)c3)c([N+](=O)[O-])c21 | PANC-1 | cell growth or viability, SRB |  |  | 49 µM and 49.1 µM
CNC(=O)C1CN1S(=O)(=O)c1ccc(C(C)(C)C)cc1 (stereo not shown) | Balb/c 3T3 fibroblasts | cytotoxicity, neutral red uptake | DMEM with 5% FBS | 24 h | 28 ± 4 µM
CCCCn1cc(C(=O)O)c(=O)c2cc(F)c(Nc3cccc(Cl)c3)c(N)c21 | K562 | cell growth, SRB |  | 72 h | 35.8 ± 5.43 µg/mL
COC1=C[C@@H]2[C@@H]3Cc4ccc(OC)c(OC(=O)[C@@H](N)Cc5ccccc5)c4[C@]2(CCN3C)CC1=O | RAW264.7 | cytotoxicity, MTT |  | 24 h | > 100 µM
CCOC(=O)C1CN1S(=O)(=O)c1ccc(C)cc1 (stereo not shown) | Balb/c 3T3 fibroblasts | cytotoxicity, neutral red uptake | DMEM with 5% FBS | 24 h | 8.8 ± 1.2 µM
CCCCn1cc(C(=O)O)c(=O)c2cc(F)c(Nc3ccccc3Cl)c([N+](=O)[O-])c21 | PANC-1 | cell growth or viability, SRB |  |  | 114 µM
CC(C)[C@H](NC(=O)[C@H](CCC(=O)O)NC(=O)[C@@H](NC(=O)[C@@H](C)c1cccc(C(=O)c2ccccc2)c1)C(C)C)C(=O)N[C@@H](CCC(=O)O)C(=O)O | rat arthritic fibroblast-like synoviocytes |  |  | 48 h | 223 µg/mL
COC1=C[C@@H]2[C@@H]3Cc4ccc(OC)c(OC(=O)c5cnccn5)c4[C@]2(CCN3C)CC1=O | RAW264.7 | cytotoxicity, MTT |  | 24 h | > 100 µM
COC(=O)C1CN1S(=O)(=O)c1ccccc1 (stereo not shown) | Balb/c 3T3 fibroblasts | cytotoxicity, neutral red uptake | DMEM with 5% FBS | 24 h | 3310 ± 947 µM
COC1=C[C@@H]2[C@@H]3Cc4c(COC(=O)c5cnc(C)cn5)cc(OC)c(OC(=O)c5cnc(C)cn5)c4[C@]2(CCN3C)CC1=O | RAW264.7 | cytotoxicity, MTT |  | 24 h | > 100 µM
COc1cc(O)c2c(=O)c3c(O)c(-c4c(C)cc5c(c4O)C(=O)C4=C(O)C[C@H](OC)[C@@H](O)[C@]4(C)O5)c(C)cc3oc2c1OC | NCI-H187 | cell growth or viability, resazurin |  | 5 days | 9.9 µM
CCCCn1cc(C(=O)O)c(=O)c2cc(F)c(Nc3ccccc3Cl)c(N)c21 | PANC-1 | cell growth, SRB |  | 72 h | 30 ± 4.87 µg/mL
NC(=O)C1CN1S(=O)(=O)c1ccc(C(F)(F)F)cc1 (stereo not shown) | Balb/c 3T3 fibroblasts | cytotoxicity, neutral red uptake | DMEM with 5% FBS | 24 h | 7 ± 1 µM
CC(C)Cc1ccc(C(C)C(=O)[O-])cc1.CC(C)Cc1ccc(C(C)C(=O)[O-])cc1.[Cu+2].c1ccncc1.c1ccncc1 (stereo not shown) | OVCAR-3 | cell viability, MTT |  | 48 h | 66 µM
CCc1ccc(S(=O)(=O)N2CC2C(=O)OC)cc1 (stereo not shown) | Balb/c 3T3 fibroblasts | cytotoxicity, neutral red uptake | DMEM with 5% FBS | 24 h | 100 ± 7 µM
CCCCn1cc(C(=O)O)c(=O)c2cc(F)c3c(nnn3-c3cccc(Cl)c3)c21 | T47D | cell growth, SRB |  | 72 h | 29.4 ± 3.68 µg/mL
COC1=C[C@@H]2[C@@H]3Cc4c(Br)cc(OC)c(OC(=O)c5cnccn5)c4[C@]2(CCN3C)CC1=O | RAW264.7 | cytotoxicity, MTT |  | 24 h | 52.7 ± 3.19 µM
CCCCn1cc(C(=O)O)c(=O)c2cc(F)c3c(nnn3-c3ccccc3Cl)c21 | PANC-1 | cell growth or viability, SRB |  |  | 37.6 µM
O=c1[nH]c(=O)c2cccc(O)c2o1 | NCI-H187 | cytotoxicity |  |  | 38.7 µM
COC(=O)C1CN1S(=O)(=O)c1ccc(NC(C)=O)cc1 (stereo not shown) | Balb/c 3T3 fibroblasts | cytotoxicity, neutral red uptake | DMEM with 5% FBS | 24 h | 600 ± 80 µM
CC=C(C)C(=O)OC1C(O)C2OC(COC(=O)CCCCCCCCCC(CCCCC)OC3OC(C)C(OC(C)=O)C(O)C3O2)C1OC(=O)C=Cc1ccccc1 (stereo not shown) | NIH/3T3 | cytotoxicity |  |  | 0.0247 µM
COc1cccc2c1C(=O)c1c(O)c3c(c(O)c1C2=O)C[C@@](O)(C(CO)=NNC(=O)CCCCCCCCCCNC(=O)CCCCCCCCCCNC(=O)CCCCCCCCCCNC(=O)CCCCCCCCCCNC(=O)[C@H](CCCCNC(=O)COCCOCCNC(=O)[C@@H](CC(=O)O)NC(=O)[C@@H](CC(=O)O)NC(=O)[C@@H](CC(=O)O)NC(=O)[C@H](N)CC(=O)O)NC(=O)COCCOCCNC(=O)[C@@H](CC(=O)O)NC(=O)[C@@H](CC(=O)O)NC(=O)[C@@H](CC(=O)O)NC(=O)[C@H](N)CC(=O)O)C[C@@H]3O[C@H]1C[C@H](N)[C@H](O)[C@H](C)O1 | SAOS-2 | cell growth or viability, CCK-8 |  | 72 h | 0.45 µM
CCCCc1ccc(S(=O)(=O)N2CC2C(=O)OC)cc1 (stereo not shown) | Balb/c 3T3 fibroblasts | cytotoxicity, neutral red uptake | DMEM with 5% FBS | 24 h | 160 ± 17 µM
COc1cccc2c1C(=O)c1c(O)c3c(c(O)c1C2=O)C[C@@](O)(C(CO)=NNC(=O)CCCCCCCCCCNC(=O)CCCCCCCCCCNC(=O)COCCOCCNC(=O)[C@@H](CC(=O)O)NC(=O)[C@@H](CC(=O)O)NC(=O)[C@@H](CC(=O)O)NC(=O)[C@@H](CC(=O)O)NC(=O)[C@@H](CC(=O)O)NC(=O)[C@@H](CC(=O)O)NC(=O)[C@@H](CC(=O)O)NC(=O)[C@H](N)CC(=O)O)C[C@@H]3O[C@H]1C[C@H](N)[C@H](O)[C@H](C)O1 | SAOS-2 | cell growth or viability, CCK-8 |  | 72 h | 0.39 µM
COC(=O)C1CN1S(=O)(=O)c1ccc(Cl)cc1 (stereo not shown) | Balb/c 3T3 fibroblasts | cytotoxicity, neutral red uptake | DMEM with 5% FBS | 24 h | 100 ± 20 µM

Excerpt of the above:
Structure (SMILES) | cell line | assay | system | setting | IC50
CNC(=O)C1CN1S(=O)(=O)c1ccc(C(C)(C)C)cc1 (stereo not shown) | Balb/c 3T3 fibroblasts | cytotoxicity, neutral red uptake | DMEM with 5% FBS | 24 h | 28 ± 4 µM
